Measurements of several laboratories.
Each line is one published result; not all experiments were run side by side. “And” joins repeats or separate records; there may be more than shown. ± marks the error that the study gave.
pyrD: Dihydroorotate dehydrogenase (quinone) (pyrD, Acinetobacter baumannii, UniProt B7GZW7)
AKR1B1: Aldo-keto reductase family 1 member B1 (AKR1B1, Homo sapiens, UniProt P15121)
Kir3.1/Kir3.4: Kir3.1/Kir3.4 (Homo sapiens, UniProt P48544+P48549)
GUK1: GUK1 (Homo sapiens, UniProt Q16774)
P2RX4: P2X purinoceptor 4 (P2RX4, Homo sapiens, UniProt Q99571)
T1: riboswitch RNA yjdF aptamer domain (Bacillus subtilis); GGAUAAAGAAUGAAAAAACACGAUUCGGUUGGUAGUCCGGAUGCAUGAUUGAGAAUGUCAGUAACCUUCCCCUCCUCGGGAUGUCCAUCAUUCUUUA

`COCc1nc2nc(C)cc(Nc3ccc(S(F)(F)(F)(F)F)cc3)n2n1` gave a robust Z-score of 18.3 (pyrD; enzyme activity, inhibitor, colorimetric HTS, measured: DCIP reduction; 3 µM; direction not given).
`Nc1nc(=O)n([C@H]2C[C@H](O)[C@@H](CO)O2)cc1CN(CC[C@H](N)C(=O)O)C[C@H]1O[C@@H](n2cnc3c(N)ncnc32)[C@H](O)[C@@H]1O` — result for inhibition type: “inhibited” (DNMT1 (Homo sapiens, UniProt P26358); radiometric [3H]-SAM; concentration not given, with: SAM, poly(dI-dC)).
The Hill slope of `COc1cc(/C=C2\SC(=O)N(CC(=O)c3ccc([N+](=O)[O-])cc3)C2=O)cc(OC)c1OC` is reported as -0.461 (AKR1B1; enzyme activity, inhibitor).
With `CCc1nc2nc(C)cc(Nc3ccc(S(F)(F)(F)(F)F)cc3)n2n1` the robust Z-score was 25.3 (pyrD; enzyme activity, inhibitor, colorimetric HTS, measured: DCIP reduction; 3 µM; direction not given).
`O=c1nc(SCc2cc(F)cc(C(F)(F)F)c2)nc(SCc2ccc3sccc3c2)[nH]1` — result for “ATP hydrolysis rate”: 1.97 µM/min and 1.95 µM/min (TOP2A (Homo sapiens, UniProt P11388); ATPase activity; 1.95 µM, with: ATP 0.5 mM).
For `CC(=O)Nc1ccc(O)cc1`, “chemical shift change” read 0.022 ppm (BRD4 (Homo sapiens, UniProt O60885); 19F NMR, measured: tyrosine 119; 375 µM; relative to: free protein).
The normalized current of `Nc1ncnc2c1ncn2[C@@H]1O[C@H](COP(=O)(O)OP(=O)(O)OP(=O)(O)O)[C@@H](O)[C@H]1O` is reported as 0.73 and 0.817 and 0.635 (P2X purinoceptor 7 (P2rx7, Rattus norvegicus, UniProt Q64663, I214A); ion current, agonist, two-electrode voltage clamp; Xenopus laevis oocytes; 100 µM; relative to: highest concentration response).
`N#Cc1ccc2c(-c3ccncc3)c(-c3ccc(F)cc3)nn2c1` — result for “log2 fold change”: 0.213 (Cyclin-dependent kinase 1 (CDC28, Candida albicans, UniProt P43063); kinase binding, competitor, MIB/MS competition, measured: CDC28; Candida albicans cell lysate; 10 µM; relative to: DMSO).
`CCOc1nc2nc(C)cc(Nc3ccc(C(F)(F)F)c(F)c3)n2n1` gave a robust Z-score of 21.4 (pyrD; enzyme activity, inhibitor, colorimetric HTS, measured: DCIP reduction; 3 µM; direction not given).
The Km of `CCCCO` is reported as roughly 100 mM (ADH1 (Saccharomyces cerevisiae, UniProt P00330); enzyme activity, substrate; pH 6).
`CC(C)C[C@H](N)C(=O)Nc1ccc2ccccc2c1` gave a kcat of 4.13 s⁻¹ (rat aminopeptidase III; substrate; MW 110 kDa).
`C=C1CN(S(=O)(=O)c2ccc(C)cc2)CCCN(Cc2ccccc2)CCCN(S(=O)(=O)c2ccc(C)cc2)C1` has an FLuc/RLuc ratio of 1.39 (Protein transport protein Sec61 subunit alpha isoform 1 (Homo sapiens, UniProt P61619); Sec61-dependent translocation, inhibitor, measured: CD4 signal peptide-FLuc reporter; HEK293; 0.37 mM, 6 h).
Under “bead pulldown of target”, `CCn1c(-c2nc3ccc(C(=O)N4CCCC(N)C4)cc3n2C)cc2ccccc21` (stereo not drawn) is recorded as “no effect” (PADI4 (Homo sapiens, UniProt Q9UM07); binding, competitor, chemoproteomic pulldown immunoblot; 10 µM).
`Oc1ccccc1-c1n[nH]cc1-c1ccnc2ccccc12` — result for “log2 fold change”: 0.01 (Serine/threonine-protein kinase CLA4 (CLA4, Candida albicans, UniProt O14427); kinase binding, MIB/MS competition; Candida albicans lysate; 1 µM; relative to: DMSO, negative = stronger binding).
Under activity, `O=C(COc1ccc(Cl)cc1Cl)Nc1nn(-c2ccccc2)c2cccnc12` is recorded as “inactive” (Kir3.1/Kir3.4; activator, thallium flux; HEK293; concentration not given).
For `Nc1ncnc2c1ncn2[C@@H]1O[C@H](CO[P@](=O)(O)O[P@](=O)(O)O[P@@](=O)(O)S)[C@@H](O)[C@H]1O`, the ΔH was -7.49 kJ/mol (GUK1; binding, isothermal titration calorimetry; molar ratio 0.297, fitted curve).
With `Nc1ncnc2c1ncn2[C@@H]1O[C@H](COP(=O)(O)CP(=O)(O)OP(=O)(O)O)[C@@H](O)[C@H]1O` the calcium influx was 2% and 4.12% and 1.13% (P2X purinoceptor 1 (P2RX1, Homo sapiens, UniProt P51575, R139P); calcium influx; 100 nM; relative to: ionomycin response).
The fraction bound of `NCCCCC(=O)O` is reported as 0 (SLC6A6 (Homo sapiens, UniProt P31641, Y138A); binding, microscale thermophoresis; 43.2 nM, fitted curve; higher = more binding).
`NC/C(=C\F)COc1cccc(Cn2c(=S)[nH]c(=O)c3[nH]cnc32)c1` gave an inhibition of 33.6% (CACNA1C (Homo sapiens, UniProt Q13936); peak ion current, inhibitor, automated patch clamp; 100 µM, pulse 1).
`O=C(COc1ccc(Cl)cc1Cl)Nc1cc(C2CCC2)nn1C1CCOCC1` gave an Emax of less than 10% (Kir3.1/Kir3.4; thallium flux, activator; HEK293; relative to: standard compound).
`COc1cc(-c2cc(C(C)=O)n3ccccc23)cc(OC)c1Cn1ccnc1` gave a ΔTm of 4.1 °C (KAT2B (Homo sapiens, UniProt Q92831)).
The remaining binding of `C[C@@H](c1ccc(-n2cnc3c(N)ncnc32)cc1)N1CCc2nn(C)c(Cc3ccccc3)c2C1=O` is reported as 74% (PNCK (Homo sapiens, UniProt Q6P2M8); KINOMEscan; 0.1 µM; relative to: DMSO).
With `CC/C=C(\C)C=O` the conversion was 27% (Enoyl-ACP reductase (Thermus thermophilus, UniProt P83818); substrate, biocatalytic transformation; pH 7, 30 °C, anaerobic, with: NADPH).
`CCc1nc2nc(C)cc(Nc3ccc(I)cc3)n2n1` gave a robust Z-score of 15.5 (pyrD; enzyme activity, inhibitor, colorimetric HTS, measured: DCIP reduction; 3 µM; direction not given).
With `COc1cc(/C=C/c2ccc(O)cc2)cc(OC)c1` the ∆H was -31.9 ± 3.28 kJ/mol (O-methyltransferase (Sorghum bicolor, UniProt A0A1B6PFV1); ITC; one set of sites, with: SFG).
`CCCCC[C@H](O)/C=C/[C@H]1[C@H](O)CC(=O)[C@@H]1C/C=C\CCCC(=O)O` gave an Emax of 98 ± 3.5% (PTGER1 (Homo sapiens, UniProt P34995, F334L/G92S); IP1 accumulation, agonist; AD293; 1 h; relative to: wild type receptor).
With `NC(N)=NCCC[C@H](N)C(=O)Nc1ccc2ccccc2c1` the Km was 0.0067 mM (rat aminopeptidase III; substrate).
For `C=CC(=O)N1CCC(COCC(=O)N2CCN(c3nc(-c4cnc(N)nc4C(F)F)nc(N4CCOC[C@@H]4C)n3)CC2)CC1`, the remaining binding was 76% (Tyrosine-protein kinase ABL1, phosphorylated (ABL1, Homo sapiens, UniProt P00519, Y253F); KINOMEscan; 1 µM).
`Cc1ccc(S(=O)(=O)Oc2ccccc2NC(=O)c2ccc3ncccc3c2)cc1` has a fluorescence increase of 82.4 ± 1.55% (P2RX4; calcium mobilization; MCF7 stably transfected; 100 µM, with: ATP 100 µM).
The ΔH of `CC(=O)N[C@H](C(=O)N1C[C@H](O)C[C@H]1C(=O)NCc1ccc(-c2scnc2C)cc1)C(C)(C)SCCCCCCNC(=O)C[C@@H]1N=C(c2ccc(Cl)cc2)c2c(sc(C)c2C)-n2c(C)nnc21` is reported as -21.8 ± 0.837 kJ/mol (BRD2/VHL, BD1; with VCB (Homo sapiens, UniProt P25440+P40337, K107A/Q101K/V106E); ITC; 25 °C, BRD2 BD1 KEA mutant, ternary).
`O=C(O)C1=CC(=C(c2ccc(O)c(C(=O)O)c2)c2ccc(O)c(C(=O)O)c2)C=CC1=O` gave a remaining current of 0.993 ± 0.049 (P2RX4; patch clamp; 400 nM, unit not given; relative to: baseline).
The maximal response of `COc1cc(F)cc2c(N3CCN(c4ccccc4F)CC3)c(C#N)nnc12` is reported as 104% (Grm7 (Rattus norvegicus, UniProt P35400); positive allosteric modulator; cell-based; with: L-AP4 EC20; relative to: L-AP4 maximum).
The reaction velocity of `Nc1nc2c(ncn2[C@@H]2O[C@H](COP(=O)(O)O)[C@@H](O)[C@H]2O)c(=O)[nH]1` is reported as 0.0827 µM/s and 0.0909 µM/s and 0.093 µM/s (GUK1; enzyme activity, NADH-coupled; 2000 µM, with: NaCl 150 mM).
With `OC[C@H]1OC(O)[C@H](O)[C@@H](O)[C@@H]1O` (stereo partly drawn) the kcat was 69 ± 11 s⁻¹ (Hexokinase-3 (HK3, Homo sapiens, UniProt P52790, R807A); substrate inhibition; mutant R807A, partial substrate inhibition model, with: ATP 20 mM).
With `O=C1S/C(=C\c2ccc([N+](=O)[O-])cc2)C(=O)N1Cc1nc2ccccc2s1` the log IC50 was 3.3 log nM (AKR1B1; enzyme activity, inhibitor).
`Cc1ccc2c(c1)sc(-c1ccc(N(C)C)cc1)[n+]2C` has a Kd of 0.039 µM (T1, riboswitch RNA yjdF aptamer domain (Bacillus subtilis); fluorescence titration).
With `CC1=NN(c2cc(Cl)ccc2Cl)C(=O)C1=NNc1ccc(S(N)(=O)=O)cc1` the inhibition was 28.941 ± 0.0011% (bovine α-glucosidase; enzyme activity, inhibitor, glucose oxidase; 10 µg/mL, with: maltose).
`NS(=O)(=O)NCCNc1nonc1C(=NO)Nc1ccc(F)c(Br)c1` gave an inflection temperature of 65.3 ± 0.2 °C (IDO1 (Homo sapiens, UniProt P14902); nanoDSF; 2% DMSO; 50 µM, unlabelled protein, 2 mM DTT).
`O=C(CCCCCCC(=O)Nc1ccccc1)NO` gave a binding stoichiometry of 0.8 (HDAC8 (Homo sapiens, UniProt Q9BY41); ITC; triethanolamine buffer; concentration not given, pH 7.5).
`O=C(COP(=O)(O)O)[C@@H](O)[C@H](O)[C@H](O)COP(=O)(O)O` — result for “thermal stability ratio”: 0.582 (Transcription elongation regulator 1 (Homo sapiens, UniProt O14776); thermal proteome profiling, measured: TCERG1; HepG2 cell lysate; concentration not given, 57 over 37 °C, mean; relative to: compound over control).
Under “normalised MST signal”, `[H]/N=C(/N)NCC(=O)O` is recorded as 0.00654 (SLC6A6 (Homo sapiens, UniProt P31641, G62A); binding, microscale thermophoresis; 122 nM, room temperature, with: 50 nM labelled protein; higher = more binding).
Under “log2 fold change”, `COc1ccccc1-c1n[nH]c2nc(N[C@H]3CC[C@H](NS(=O)(=O)CCCOCCOCCNC(=O)OC(C)(C)C)CC3)ncc12` is recorded as 4.23 (cdc2-related kinase 6 (Leishmania donovani, UniProt A0A3Q8IPR6); resin binding, SILAC competition pull-down, measured: CRK6; Leishmania donovani extract; 10 µM; relative to: heavy over light).
For `O=C(O)c1ccc(C(=O)O)c(-c2c3ccc(=O)cc-3oc3cc(O)ccc23)c1`, the Jmax was 1300 ± 1280 pmol/cm2/min (SLC22A11 (Homo sapiens, UniProt Q9NSA0); substrate; CHO cells expressing human OAT4; 5 min, pH 7.4).
`CCCC[C@H](NC(=O)[C@H](C)c1c(C)[nH]c2ccc(O)cc12)c1ncc(-c2cc3ccccc3nc2OC)[nH]1` has an effect of 54% (PTGER3 (Homo sapiens, UniProt P43115); 10 µM).
Under activity, `Cc1nn(C2CCS(=O)(=O)C2)c(C)c1NC(=O)COc1cc(Cl)ccc1Cl` (stereo not drawn) is recorded as “inactive” (Kir3.1/Kir3.4; activator, thallium flux; HEK293; concentration not given).
